Results pooled from the literature.
Parts stem from different laboratories: compare values within a part only.

Block 1
Target: Interferon regulatory factor 5, full length, phosphomimetic (IRF5, Homo sapiens, UniProt Q13568-2, residues 1-514, K96S/S451D/S453D/S456D/S462D)
Technique: protein-binding microarray
Form: double-stranded DNA, one strand shown
Sample: in vitro
Tested at: 250 nM
Setting: 60-bp whole probe
With: salmon DNA 0.4 mg/ml
Relative to: random background probes
Direction: higher = stronger binding
Quantity: log fluorescence
Shared flanks, not repeated: GCCTAGCAC … GTCTTGATTCGCTTGACGCTGCTG
GACGAGCTCAGACTGGAGACGTGCTAG: -0.614 z-score
TTAGACCTCAGTATCGATTAGTGCTAG: 6.6 z-score
GACGGACTGCTTATCCTGACGTGCTAG: -0.502 z-score
TTAGGTATCCTTATCCTTAAGTGCTAG: 0.251 z-score
TTAGGTATCGACTTTCTGTTAGTGCTA: 6.27 z-score
TCATTTCTGAATGTCTTACTGTGCTAG: 1.28 z-score
GACGGCATCGACTATCGGGACGTGCTA: 1.02 z-score
TCATGGGTCTTGTCTGGAACTGTGCTA: -0.286 z-score
GGCCCTATAGGTTTCTATATGTGCTAG: 0.736 z-score
TCAACTCTCTGCTTGTGACTGTGCTAG: 0.0451 z-score
TCAAGTCTCTGTTCTTTACTGTGCTAG: 0.502 z-score
GACGGTATCGTGTTTCGGGACGTGCTA: 2.93 z-score
GACGTACTGGACACTGGGGACGTGCTA: -0.534 z-score
ACTAGTGTTTTTCTCCTATTGTGCTAG: 1.02 z-score
TTAGAACTGAGGACTGGATTAGTGCTA: -0.00429 z-score
GACGAACTGAGTCTCGCGACGTGCTAG: -0.391 z-score
TTAGGTCCCGGTCTCGGTTAGTGCTAG: 0.0729 z-score
GACGGTTACCTTATCCTGACGTGCTAG: -0.135 z-score
GACGGTTTTCTTTCCCTGACGTGCTAG: 1.04 z-score

Block 2
Target: Sal-like protein 4, full length isoform B (SALL4, Homo sapiens, UniProt Q9UJQ4-2, residues 1-616)
Technique: universal PBM
Form: double-stranded DNA, one strand shown
Sample: in vitro
Tested at: not given
Setting: 8-mer, flanks averaged, mean of replicates
Direction: higher = stronger binding
Quantity: E-score
AATAACCG: 0.153
GGGCGAGA: -0.245
GAGTTTAC: 0.0178
AACCCAGG: -0.355
AGAGGTCA: -0.201
CAGTCAGA: -0.074
AAGAACTA: 0.141
CGCCCTTC: -0.305
AAAACATC: 0.0904
AGCTCACC: -0.199
TGCTCCCA: 0.02
AAATTACT: 0.349
CTCGGTTA: -0.146
TATCCTCA: 0.152
CTGCAGGA: -0.00707
GATTCACA: 0.0188
ATACTAGG: 0.169
AGCTTGGC: -0.198
ACGTTCCT: 0.0974

Block 3
Target: Prothrombin, mature alpha-thrombin (F2, Homo sapiens, UniProt P00734)
Technique: aptamer microarray, sandwich
Form: DNA with 2'F-ANA
Sample: in vitro
Tested at: 200 nM
Setting: whole 15-mer aptamer, many near background
With: Cy3 exosite-II aptamer, 400 nM
Direction: higher = stronger binding
Quantity: mean fluorescence intensity
Oligonucleotide: GGTTGGTGTGGTTGG
2'F-ANA at 1 3 4 6 9 10 12 13 15: 154 a.u.
2'F-ANA at 2 3 4 5 6 9 14: 46.7 a.u.
2'F-ANA at 2 4 8 11 12 13 15: 381 a.u.
2'F-ANA at 4 5 6 7 10 11 12 13 15: 80.1 a.u.
2'F-ANA at 1 3 7 8 9 10 11 13 15: 79.3 a.u.
2'F-ANA at 5 6 8 9 10 11 13 14 15: 51.3 a.u.
2'F-ANA at 2 3 4 8 15: 678 a.u.
2'F-ANA at 1 3 4 6 9 10 14: 50.7 a.u.
2'F-ANA at 2 3 6 8 10: 312 a.u.
2'F-ANA at 4 5 6 7 9 10 11 12: 54 a.u.
2'F-ANA at 4 10 11 13 14: 60.3 a.u.
2'F-ANA at 1 2 3 4 7 9 10 15: 59.9 a.u.
2'F-ANA at 2 3 4 5 9 14 15: 51.3 a.u.
2'F-ANA at 1 3 5 6 7 8 9 10 13 15: 91 a.u.
2'F-ANA at 1 2 3 5 7 9 12: 119 a.u.
2'F-ANA at 2 3 5 6 7 8 10 12 13 14: 49.4 a.u.
2'F-ANA at 1 2 3 4 7 8 9 14 15: 61.7 a.u.
2'F-ANA at 1 5 6 7 8 9 11 12 14: 51.1 a.u.
2'F-ANA at 1 5 6 8 9 11 15: 55.7 a.u.
2'F-ANA at 2 3 4 6 8 9 11 13 14: 196 a.u.
2'F-ANA at 1 4 5 10 12 13: 46.1 a.u.
2'F-ANA at 1 2 5 12 13 14 15: 44.7 a.u.

Block 4
Target: Histone acetyltransferase KAT6A, both winged helices, GST fusion (KAT6A, Homo sapiens, UniProt Q92794, residues 1-181)
Technique: protein binding microarray
Form: double-stranded DNA, one strand shown
Sample: in vitro
Tested at: not given
Setting: 8-mer, flanks averaged, mean of 2 arrays, mostly near background
Relative to: not given
Direction: higher = stronger binding
Quantity: E-score
Residues (chain): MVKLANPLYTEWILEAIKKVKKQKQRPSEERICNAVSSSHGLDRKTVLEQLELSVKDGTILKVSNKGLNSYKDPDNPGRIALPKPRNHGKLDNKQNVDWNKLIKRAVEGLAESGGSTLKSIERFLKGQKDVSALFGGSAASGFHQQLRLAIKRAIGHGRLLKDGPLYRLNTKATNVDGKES
GGAGTGCA: -0.147
GGTACAAC: -0.0283
ACCTGTCT: -0.167
AGTCTACG: -0.106
AATTCCCC: 0.0336
CCTACACA: -0.138
AAATATGA: -0.167
ATGTAGCA: -0.0756
AATTGGTC: -0.0706
GAGGGCCC: -0.111
ATATACTC: -0.163
ACAACGGA: 0.148
CACAGTAG: -0.095
CACCGTCA: 0.234
ACTCGTCC: -0.0262
GGAGTCAA: -0.116
AGAACAAA: 0.0343
TAGCACTA: -0.194
